Measured values pooled from the literature.
A part holds a random share of what one study measured. Changes are numbered by the printed parent chain.

Sample 1 — method: RNA Bind-n-Seq; molecule type: RNA; sample: in vitro; concentration: 365 nM; reference: no-protein control; reading: higher = stronger binding; measurement: RBNS enrichment (R)
Target: RNA binding protein fox-1 homolog 2, RRM domain, GST-SBP tag (RBFOX2, Homo sapiens, UniProt O43251-10, residues 100-194)
Setting: natural RNA segment, single round, ends assumed
Constant ends, left off below: GGGAGUUCUACAGUCCGACGAUC … UGGAAUUCUCGGGUGCCAA
Residues (chain): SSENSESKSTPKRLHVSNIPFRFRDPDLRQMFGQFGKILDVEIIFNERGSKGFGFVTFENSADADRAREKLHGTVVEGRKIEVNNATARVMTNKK
GAUUUUUAUUUUAAUAUUAUUUGUGUCUGUGUAUAUAUUUGUAUAUAAAUUUUAUGAACCCCAGGCAUACUGCUUGUUUUUUUAAAAAAAAAUAAAACUCAAAAUUGAUC: 4.08
AUUGAAAGCUUCCAUGUUUAAUGUUAUCCUCUUGCUAUAUAAAUAAAGCAAAUAUAUUUAGGCCAGGGUCUCACUGAGGGGGAGCUGUCUUGUCAUCUUUUAGAGUAAAC: 0.439
ACCCCAUAGCUGGAGGCCUGUGGUGCCAGAAGCCCAGAUUAGGGUGGCUGUCCAUCCCUGGAUAGCUAUUUGCACGAAUCAUGGACAUAAAUCCAAGUUGAAGAAGAUCA: 2.59
UCGGCAUUCAGGGAACAGUUUCCUUAGCGGCCCCUGGUCACAUGUCAUCGGGCUGGGCAGGAAGCGUCCCUGAUUGCGUGCUCCACUUCUCCCUCUCAGGAAGCCCAGUU: 0.251
AAGUUCUUGACAUUAAUCUGUUGAGUUGUGGAUACUGGAAACCAUUUGUGUGUUCAAUCAGAUAAUUCUGACUUCUGCAUUGCCACACACGAGAUAUUCUGCUUUCAGAC: 0.206
AGAUUGUCAAGGCGAUAGAAAACCACUGCCAGAAAGACCUGUAAGAAGGGAUUUGUUCUAUACGAGGCAACUGCAGUGAGUGCUUUUAAGGCUAUCCCUGUCGCACGUUG: 0.57
AGCUUGCUCUGACGUCACCCUCCUCUCCCCUGACUCCUGUCCUGAGAGCUGUGGAUGCCGCCUCCUGCCCUGCCUACCCCUGAAACGUGGGGAAUGGGGGCCCCAGGACA: 0.457
GGAUGCAAAUGUUUUCAGUUAGAAAGCCUUUAUUUACUUUUGGAAAUUGAACAAGAAAUGCAUCUGUCUUAGAAACUGGAGAUUAUUUGAUGUUAGGUAAAACAUGUAAU: 0.659
AAAAAAUCUAUUCAGUCUACUCACAAAACAGUACAUUGUGGAAUAUUAUGGGGAAUUGUACCAAAACAAGAACCAUAUAAAUGAUGCCUAGGGACAAGAAAGAGGAACAA: 0.275
AGAACAUUGCCUUCCUCGUGCAGAGCUGGGGCUGCCAGCCUGAGCGGAGGCUCGGCCGUGGGCCGGGAGGCAGUGCUGAUCCGGCUGCUCCUCCAGCCCUUCAGACGAGA: 0.391
GGGCAAUGCAGGAUCCAAAUCCUCAUCUUACUUUCCCGACCUUAAGGAUGUAGCUGCUGCUUGUCCUGUUCAAGUUGCUGGAGCAGGGGUCAUGUGAGGCCAGGCCUGUA: 0.352
CCGGCUUUGCCUGCCACCUCUGCCCAGGACACUCUUCCCUCUCGGGAUGUGUGAUGAACUCCCAGGAGAGGGAAGAUGGGAGCCAGGGCAAGAUAGGAAGCUCUGCCUGA: 0.477

Sample 2 — target: CCNE2, cyclin fold, Cln2 fusion (human); method: yeast growth competition, sequencing; sample: yeast; setting: weak parent motif; reference: not given; reading: higher = stronger binding; measurement: normalised enrichment score
Starting sequence: ORC1 docking peptide (human); PRARKRLELGNLG; partner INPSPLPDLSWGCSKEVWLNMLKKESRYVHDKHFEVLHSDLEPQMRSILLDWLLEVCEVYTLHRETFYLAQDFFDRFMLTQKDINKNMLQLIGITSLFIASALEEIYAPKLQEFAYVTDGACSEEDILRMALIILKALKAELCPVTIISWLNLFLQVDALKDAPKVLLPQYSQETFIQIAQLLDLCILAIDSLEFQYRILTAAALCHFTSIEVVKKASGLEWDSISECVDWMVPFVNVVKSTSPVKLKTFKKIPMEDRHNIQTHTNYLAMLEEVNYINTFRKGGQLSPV
L9C: 0.833
L12W: 1.13
L12A: 0.951
L7D: 0.159
E8C: 1.64
R6L: 1.28
E8S: -0.144
L7T: -0.593
K5W: 1.1
L7G: -0.0522
G13C: 0.809
L7P: -0.526
L12R: 0.746
K5F: 1.05
K5Q: 0.165
G10H: 0.865
G13S: 0.356
K5D: 0.201
G10D: 1.12
L12H: 1.04
R6F: 1.32
R2W: 1.15
K5R: 1.12
L9R: 0.232
R6W: 0.593

Sample 3 — method: RNA Bind-n-Seq; molecule type: RNA; sample: in vitro; concentration: not given; reference: input RNA pool; reading: higher = stronger binding; measurement: bound/input enrichment
Target: RING finger protein unkempt homolog, zinc fingers 1-6, GST-SBP tag (UNK, Homo sapiens, UniProt Q9C0B0, residues 30-357)
Sequence of UniProt Q9C0B0 (30-357, looked up): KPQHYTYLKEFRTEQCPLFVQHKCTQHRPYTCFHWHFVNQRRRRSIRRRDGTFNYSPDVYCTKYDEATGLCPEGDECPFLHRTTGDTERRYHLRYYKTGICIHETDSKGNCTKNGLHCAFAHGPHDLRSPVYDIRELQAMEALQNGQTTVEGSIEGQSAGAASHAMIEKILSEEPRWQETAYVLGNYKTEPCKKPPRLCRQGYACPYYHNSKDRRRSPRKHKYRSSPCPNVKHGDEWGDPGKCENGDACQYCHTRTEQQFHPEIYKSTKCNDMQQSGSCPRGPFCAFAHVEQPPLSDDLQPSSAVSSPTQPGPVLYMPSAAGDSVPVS
Setting: RNA with constant flanks, human and mouse sites, ends assumed
Constant ends, left off below: GGGAGUUCUACAGUCCGACGAUC … CAACAGAGGAUUGAGCAUCA
AGCGCAUACCUGUUCCUCUUCUCAUUCUCUCCCCGCCGCCUGUUUCCUCACCUUCUCUCCCCUUUCCAUGCCGUCCAUGAUCCCCACCCCAUGUGUUUUAAAAAGGCAGUAGCCUUUGCA: 1.09 ratio
CGCUGUCCAGCUCUAGGGUGGCGGACCUGGGGAACCCGGGUCGAGUCUCCAUGGUGCGCGCCUCGGGUGGAAAGCCUGGCGCAGCGGCGGCCUUAGCAGAACCGCAUACAGCCACCUGGG: 0.0372 ratio
UCUGCAGAGCUGAGGGCGCCGUCUUCGGCCAGGCCGUGACACGGUGAAUUAAAGUCGGCUAUAGAUUUCUGUGAAAAUGUCGGUUCUUAUAUCACAGAGUGUGAUAAAUUAUGUGGAAGA: 0.157 ratio
AAAGAUGAGUCUGAAGUUAUAUCGCAAAAUGAAACGUGCUCUCCAGCAGAAGUAGAAAGUAAUGAAAAGGACAACAAACCUGAGGAAGAAGAGCAAGUAAUACAUGAAGAUGAUGAAAGA: 0.354 ratio
GCUGCCUCUAUCUUGUUUUUUGUUUUUUCUUCUGGGGGGGGUCUAGAACAGUGCCUGGCACAUAGUAGGCGCUCAAUAAAUACUUGUUUGUUGAAUGUCUCCUCUCUCUUUCCACUCUGG: 0.638 ratio
CCAUAUCGAGCCACUUUUAUUGCAGACAAUGAGCUGUGGGUUGUCACAUCAUUCAUGGCAUACGGUUCUGCAAAAGAUCUCAUCUGUACACACUUCAUGGAUGGCAUGAAUGAGCUGGCG: 0.117 ratio
CCAGGAAAAGUGUCUGGCAGCCCUGAGCAAGCCGUGGAGGAAAACCUUAGUUCCUAUUCCUUAGACAGAAGAGUGACACCCGCCUCUGAGACCCUAGAAGACCCUUGCAGGACAGAGUCC: 0.831 ratio
CGUUUCUAUAAGAAUUGGCAUAAAUCUAAGAAGAAGGCCUUUACCAAGUACUGCAAGAAAUGGCAGGAUGAGGAUGGCAAGAAGCAGCUGGAGAAGGACUUCAGCAGCAUGAAGAAGUAC: 0.166 ratio
GAGACACUUGAAGAAAAUUGCCCCAAAGCCCUGACUUUAAGGAUUCAUGAUUCUUUGAAUAAUACUCUGUCAGUUGGCCUCAUUCCAACCAAUUCAACAAAUACUAUCAUGGACCAAAAA: 0.255 ratio
CCAGGCCCAGCCAAGUCAGAGUUUGACUUAGCAACUAUUUCUAGAAUUUUUUCAGCUCUUUUAGUGACAGCUUUUAAACCAUCAAUCUUUUUGUUUUGUUUUUUUGUUUUUCAAGACACG: 32 ratio
AUGAUAAUGGCAUCAGCUGCUAAGGAAUUUAAAAUGGACAACUUUUCACCUAAAGCUGGCACUAGCAAAUUGCAACAGACAGUACCAGCUGAUGCAUCUCCUGAUUCUAAGUGUCCUAUA: 0.0871 ratio

Sample 4 — method: competition protein-binding microarray; molecule type: double-stranded DNA, one strand shown; sample: in vitro; concentration: 2 µM; together with: Cbf1 competitor, 0.05 µM; reading: higher = stronger binding; measurement: fluorescence intensity; constant ends, left off below: … GTCTTGATTCGCTTGACGCTGCTG
Target: Phosphate system positive regulatory protein PHO4, full length, GST-tagged (PHO4, Saccharomyces cerevisiae, UniProt P07270, residues 1-312)
Setting: whole 60-bp probe, lowest competitor level
Residues (chain): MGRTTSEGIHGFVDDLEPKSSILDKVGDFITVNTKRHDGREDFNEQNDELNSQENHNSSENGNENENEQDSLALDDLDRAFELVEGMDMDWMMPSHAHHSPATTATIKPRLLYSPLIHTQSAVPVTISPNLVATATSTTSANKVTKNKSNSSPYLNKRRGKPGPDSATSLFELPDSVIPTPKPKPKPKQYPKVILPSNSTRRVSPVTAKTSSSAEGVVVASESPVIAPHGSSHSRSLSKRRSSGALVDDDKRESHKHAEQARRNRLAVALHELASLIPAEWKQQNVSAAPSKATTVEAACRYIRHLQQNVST
GGGCTGGATAGCCATCAGGTGCTGCACAGATTACTA: 4870 a.u.
TCGCAGATGTTGCCCAGCCTGATCCAGCTCGTATTA: 2460 a.u.
ACAAGTTCATCATTTCACGTGTGGAGCATAGTGTGG: 12400 a.u.
AACCTACATCTTCACATCGTGGCCGAATTGAAGCTA: 9130 a.u.
CCGGTTTTGTAGGACTAGGTGTGTTCAGTGGTGGCT: 5410 a.u.
ACAAAATTCCCCCATCACGTGAAGCAGGAGGCGCAA: 10800 a.u.
TTGCTGAGGAAGAGAGACGTGCTTTTGCCAACTCCA: 5930 a.u.
GACACGACTGACAAACAAAAGTTAATATATATTACA: 4390 a.u.
ACTTGGCGTTGGTCCAACGTGGAATTTCAACAACCA: 8940 a.u.
AAAGCGGTAATTTGCCTAGTGGGTGCAGATATCTAT: 5070 a.u.
CTAACGAAGGTTTGTCACAGGACTTACAAGCCAAGT: 4280 a.u.
TAGGTGCCGTACTATCGCGTGCCAGCACCATGACAG: 8350 a.u.
AAAGCGGTAATTTGGTACGTGGGTGCAGATATCTAT: 8860 a.u.
AGTCATTGCGTTACCCACGTGGTCGTTATTGTCCAT: 18200 a.u.
TATATAAGATAATTGCACATGCAAACAGTCAATCTT: 8600 a.u.
AAAAAAAATTTTCGCCTCGTGGCCGGAAACACGGCC: 11700 a.u.
AGCTGGGACTATAGGCACGTGCCACCACACCCAGCT: 18800 a.u.

For quick reference, copied from above (sample 4):
TCGCAGATGTTGCCCAGCCTGATCCAGCTCGTATTA: 2460 a.u.
ACAAGTTCATCATTTCACGTGTGGAGCATAGTGTGG: 12400 a.u.
AACCTACATCTTCACATCGTGGCCGAATTGAAGCTA: 9130 a.u.
CCGGTTTTGTAGGACTAGGTGTGTTCAGTGGTGGCT: 5410 a.u.
ACAAAATTCCCCCATCACGTGAAGCAGGAGGCGCAA: 10800 a.u.
TTGCTGAGGAAGAGAGACGTGCTTTTGCCAACTCCA: 5930 a.u.
GACACGACTGACAAACAAAAGTTAATATATATTACA: 4390 a.u.
ACTTGGCGTTGGTCCAACGTGGAATTTCAACAACCA: 8940 a.u.
AAAGCGGTAATTTGCCTAGTGGGTGCAGATATCTAT: 5070 a.u.
CTAACGAAGGTTTGTCACAGGACTTACAAGCCAAGT: 4280 a.u.
